Experimental data from different studies.
A part holds a random share of what one study measured. Changes are numbered by the printed parent chain.
UniProt P07332, sequence (whole entry, looked up): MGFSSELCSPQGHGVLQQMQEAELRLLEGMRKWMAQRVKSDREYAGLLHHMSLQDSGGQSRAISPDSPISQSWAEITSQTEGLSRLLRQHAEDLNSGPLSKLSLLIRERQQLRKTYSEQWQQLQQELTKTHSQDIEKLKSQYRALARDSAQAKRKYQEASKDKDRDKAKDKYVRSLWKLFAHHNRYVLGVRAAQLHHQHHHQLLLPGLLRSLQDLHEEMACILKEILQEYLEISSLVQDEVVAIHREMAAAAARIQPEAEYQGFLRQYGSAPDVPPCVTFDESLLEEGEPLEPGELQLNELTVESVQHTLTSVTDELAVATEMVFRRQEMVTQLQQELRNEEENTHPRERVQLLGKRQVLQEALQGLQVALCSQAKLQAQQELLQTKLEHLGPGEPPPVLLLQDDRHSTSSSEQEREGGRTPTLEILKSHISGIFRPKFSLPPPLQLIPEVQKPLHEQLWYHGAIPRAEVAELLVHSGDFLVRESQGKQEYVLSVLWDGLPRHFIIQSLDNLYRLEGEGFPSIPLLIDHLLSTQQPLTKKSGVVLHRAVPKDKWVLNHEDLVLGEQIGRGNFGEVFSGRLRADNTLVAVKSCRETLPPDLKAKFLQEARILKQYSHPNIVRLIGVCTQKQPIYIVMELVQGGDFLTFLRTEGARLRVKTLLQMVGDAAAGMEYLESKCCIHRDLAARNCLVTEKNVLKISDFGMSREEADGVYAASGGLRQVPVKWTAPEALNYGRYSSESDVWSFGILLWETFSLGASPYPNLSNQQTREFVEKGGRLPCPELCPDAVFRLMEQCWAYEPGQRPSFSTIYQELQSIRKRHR
UniProt Q9BXA7, sequence (whole entry, looked up): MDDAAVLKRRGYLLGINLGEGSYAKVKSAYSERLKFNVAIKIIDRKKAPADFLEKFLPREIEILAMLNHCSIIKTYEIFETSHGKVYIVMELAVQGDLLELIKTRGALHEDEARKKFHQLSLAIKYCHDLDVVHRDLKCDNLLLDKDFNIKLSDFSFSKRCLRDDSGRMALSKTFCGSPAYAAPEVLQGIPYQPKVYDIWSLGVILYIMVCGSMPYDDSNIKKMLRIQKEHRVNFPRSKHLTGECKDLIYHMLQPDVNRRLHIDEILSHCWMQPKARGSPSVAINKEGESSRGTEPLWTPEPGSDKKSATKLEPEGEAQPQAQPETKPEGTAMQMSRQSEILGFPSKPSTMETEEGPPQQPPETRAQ

Block 1
Target: CCND2, cyclin fold, Cln2 fusion (human)
Method: yeast growth competition, sequencing
Medium: yeast
Notes: weak parent motif
Reference: not given
Direction: higher = stronger binding
Parent: CDC25A docking peptide (human); PPHRRRLLFACSP
Change | normalised enrichment score
PPHRRRLLFRCSP [A10R] | 0.183
VPHRRRLLFACSP [P1V] | -0.0962
PPHRRRLLMACSP [F9M] | 0.274
EPHRRRLLFACSP [P1E] | 0.0546
PVHRRRLLFACSP [P2V] | -0.191
HPHRRRLLFACSP [P1H] | -0.00684
PPHRRQLLFACSP [R6Q] | 0.525
QPHRRRLLFACSP [P1Q] | -0.0105

Block 2
Target: Homeobox protein Hox-B13, full length (HOXB13, Homo sapiens, UniProt Q92826, residues 1-284)
UniProt Q92826, sequence (whole entry, looked up): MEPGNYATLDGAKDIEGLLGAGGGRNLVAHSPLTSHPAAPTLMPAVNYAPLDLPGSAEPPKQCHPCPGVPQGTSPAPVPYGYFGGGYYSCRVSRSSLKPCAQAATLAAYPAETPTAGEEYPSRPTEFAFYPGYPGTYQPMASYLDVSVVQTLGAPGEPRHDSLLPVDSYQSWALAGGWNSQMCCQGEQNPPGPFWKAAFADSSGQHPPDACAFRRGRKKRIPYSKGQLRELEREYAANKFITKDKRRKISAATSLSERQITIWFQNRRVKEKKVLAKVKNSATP
Method: protein-binding microarray
Molecule type: hairpin DNA
Medium: in vitro
Tested at: not given
Notes: whole hairpin DNA, median over replicate spots
Reference: not given
Direction: higher = stronger binding
Oligonucleotide | median fluorescence
GAGGCCGTATTATTGGGGCCTCCTGGCCCCAATAATACGGCCTCACACTC | 4570 a.u.
GAGGCCGTTTGACGAGGGCCTCCTGGCCCTCGTCAAACGGCCTCACACTC (5mC at 34) | 4170 a.u.
GAGGCCCGTTTACGAGGGCCTCCTGGCCCTCGTAAACGGGCCTCACACTC (5mC at 37) | 4770 a.u.
GAGGCCGTGTTACGAGGGCCTCCTGGCCCTCGTAACACGGCCTCACACTC | 4570 a.u.
GAGGCCGTTTTACCGGGGCCTCCTGGCCCCGGTAAAACGGCCTCACACTC (5mC at 14) | 4250 a.u.
GAGGCCGTTTTATCGGGGCCTCCTGGCCCCGATAAAACGGCCTCACACTC (5mC at 14 30) | 4220 a.u.
GAGGCCGTTTTATTGCGGCCTCCTGGCCGCAATAAAACGGCCTCACACTC (5mC at 28) | 5040 a.u.
GAGGCCGTTTCATTGGGGCCTCCTGGCCCCAATGAAACGGCCTCACACTC | 4330 a.u.

Block 3
SMILES: CCCOc1ccc([C@@H]2[C@@H](C(=O)O)[C@H](c3ccc4c(c3)OCO4)CN2CC(=O)Nc2c(CC)cccc2CC)cc1
Effect on: cell-free assay
Method: competition with immobilised ligand
Tested at: 1 µM
target | remaining binding [%]
FES (Homo sapiens, UniProt P07332) | 97
Tyrosine-protein kinase ABL1, phosphorylated (ABL1, Homo sapiens, UniProt P00519, T315I) | 82
TSSK1B (Homo sapiens, UniProt Q9BXA7) | 100

Further values, each from its own experiment
Compound | medium | endpoint | value
CCC[C@@H]1NC(=O)CSC[C@@H](C(=O)OCC)N(C)C(=O)[C@H](CC(C)C)NC(=O)[C@@H](C)N(C)C(=O)[C@@H](CC(C)C)NC(=O)[C@H](C)N(C)C(=O)[C@H]2CCCN2C(=O)[C@@H](CC(C)C)NC(=O)CN(CCC)C1=O | hydrocarbon/water | logD | 1.12

A few entries again (block 2):
Oligonucleotide | median fluorescence
GAGGCCGTTTTATTGCGGCCTCCTGGCCGCAATAAAACGGCCTCACACTC (5mC at 28) | 5040 a.u.
